Published values gathered from unrelated publications.
Every numbered part comes from another study and shows a few of its results, in no order.
UniProt Q8NE63, sequence (whole entry, looked up): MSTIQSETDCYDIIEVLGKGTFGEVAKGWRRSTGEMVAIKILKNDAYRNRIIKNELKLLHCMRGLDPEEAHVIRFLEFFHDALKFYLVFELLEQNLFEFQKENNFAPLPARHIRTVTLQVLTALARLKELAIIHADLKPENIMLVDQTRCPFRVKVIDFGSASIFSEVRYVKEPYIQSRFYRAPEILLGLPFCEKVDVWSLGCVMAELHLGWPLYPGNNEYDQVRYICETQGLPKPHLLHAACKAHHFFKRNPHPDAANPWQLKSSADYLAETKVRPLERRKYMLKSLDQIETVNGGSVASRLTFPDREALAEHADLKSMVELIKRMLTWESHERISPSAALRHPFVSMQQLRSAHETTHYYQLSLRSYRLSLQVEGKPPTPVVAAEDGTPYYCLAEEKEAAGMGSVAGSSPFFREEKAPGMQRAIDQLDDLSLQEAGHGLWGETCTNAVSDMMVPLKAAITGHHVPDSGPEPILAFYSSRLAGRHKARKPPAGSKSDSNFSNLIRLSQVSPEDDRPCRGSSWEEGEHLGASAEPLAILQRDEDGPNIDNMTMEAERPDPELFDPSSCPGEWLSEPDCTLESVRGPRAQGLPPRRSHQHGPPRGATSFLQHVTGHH
UniProt O75716, sequence (whole entry, looked up): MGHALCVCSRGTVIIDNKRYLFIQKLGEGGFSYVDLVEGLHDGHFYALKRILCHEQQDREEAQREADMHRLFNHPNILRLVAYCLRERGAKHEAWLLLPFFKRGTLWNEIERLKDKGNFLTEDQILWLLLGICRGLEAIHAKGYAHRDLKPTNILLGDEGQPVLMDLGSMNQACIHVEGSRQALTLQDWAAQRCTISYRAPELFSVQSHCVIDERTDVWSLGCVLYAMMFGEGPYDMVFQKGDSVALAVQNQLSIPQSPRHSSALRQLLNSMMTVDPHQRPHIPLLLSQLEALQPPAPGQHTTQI
UniProt Q6P2M8, sequence (whole entry, looked up): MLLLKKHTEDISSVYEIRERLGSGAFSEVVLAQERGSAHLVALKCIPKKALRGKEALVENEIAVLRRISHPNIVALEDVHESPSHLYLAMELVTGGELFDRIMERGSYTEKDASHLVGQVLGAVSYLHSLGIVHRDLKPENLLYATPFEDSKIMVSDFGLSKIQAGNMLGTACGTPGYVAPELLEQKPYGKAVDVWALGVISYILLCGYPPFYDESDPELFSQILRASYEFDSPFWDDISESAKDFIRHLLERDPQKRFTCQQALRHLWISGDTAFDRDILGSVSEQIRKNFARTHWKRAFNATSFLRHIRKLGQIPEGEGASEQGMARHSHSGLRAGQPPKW
UniProt Q9UQB9, sequence (whole entry, looked up): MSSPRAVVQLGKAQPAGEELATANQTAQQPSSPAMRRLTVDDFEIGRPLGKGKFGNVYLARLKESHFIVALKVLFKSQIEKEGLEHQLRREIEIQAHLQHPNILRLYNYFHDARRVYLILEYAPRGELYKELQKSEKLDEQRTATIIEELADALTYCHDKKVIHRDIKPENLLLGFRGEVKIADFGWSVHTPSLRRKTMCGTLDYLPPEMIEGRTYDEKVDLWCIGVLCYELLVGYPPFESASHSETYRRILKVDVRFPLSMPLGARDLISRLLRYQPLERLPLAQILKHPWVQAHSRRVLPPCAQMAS
UniProt Q16644, sequence (whole entry, looked up): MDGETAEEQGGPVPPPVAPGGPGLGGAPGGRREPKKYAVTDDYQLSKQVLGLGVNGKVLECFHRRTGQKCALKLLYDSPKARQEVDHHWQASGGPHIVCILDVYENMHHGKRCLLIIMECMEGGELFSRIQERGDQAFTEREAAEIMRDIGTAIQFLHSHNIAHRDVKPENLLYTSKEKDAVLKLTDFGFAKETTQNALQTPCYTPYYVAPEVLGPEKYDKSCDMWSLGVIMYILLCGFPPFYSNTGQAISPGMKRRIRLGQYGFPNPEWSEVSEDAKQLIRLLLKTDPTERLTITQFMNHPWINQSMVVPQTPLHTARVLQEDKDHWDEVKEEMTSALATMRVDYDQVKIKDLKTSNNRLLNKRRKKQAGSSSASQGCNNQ
UniProt Q99640, sequence (whole entry, looked up): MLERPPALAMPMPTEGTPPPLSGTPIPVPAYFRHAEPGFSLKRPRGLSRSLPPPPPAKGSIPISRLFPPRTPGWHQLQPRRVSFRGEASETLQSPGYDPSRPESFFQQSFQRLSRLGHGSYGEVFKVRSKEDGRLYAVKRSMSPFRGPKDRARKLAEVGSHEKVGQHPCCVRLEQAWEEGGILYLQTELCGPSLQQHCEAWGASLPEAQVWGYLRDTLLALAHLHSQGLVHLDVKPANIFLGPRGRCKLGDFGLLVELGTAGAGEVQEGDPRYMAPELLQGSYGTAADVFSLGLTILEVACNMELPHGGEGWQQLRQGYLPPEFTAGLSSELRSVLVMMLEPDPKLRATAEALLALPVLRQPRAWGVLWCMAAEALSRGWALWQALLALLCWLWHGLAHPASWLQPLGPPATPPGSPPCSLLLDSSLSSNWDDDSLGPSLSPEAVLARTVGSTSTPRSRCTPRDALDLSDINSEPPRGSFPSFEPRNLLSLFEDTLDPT
UniProt O43293, sequence (whole entry, looked up): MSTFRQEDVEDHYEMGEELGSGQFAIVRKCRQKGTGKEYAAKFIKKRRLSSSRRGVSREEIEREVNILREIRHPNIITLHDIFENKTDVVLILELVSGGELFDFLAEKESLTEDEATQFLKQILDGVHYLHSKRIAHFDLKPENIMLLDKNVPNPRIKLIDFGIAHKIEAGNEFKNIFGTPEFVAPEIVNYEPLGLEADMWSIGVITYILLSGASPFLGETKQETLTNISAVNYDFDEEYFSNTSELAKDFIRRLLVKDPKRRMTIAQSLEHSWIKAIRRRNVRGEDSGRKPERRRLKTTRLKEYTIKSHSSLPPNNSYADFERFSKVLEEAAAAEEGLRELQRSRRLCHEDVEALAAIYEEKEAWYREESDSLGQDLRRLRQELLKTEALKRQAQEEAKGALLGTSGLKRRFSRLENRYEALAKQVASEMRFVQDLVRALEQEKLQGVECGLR
UniProt Q07912, sequence (whole entry, looked up): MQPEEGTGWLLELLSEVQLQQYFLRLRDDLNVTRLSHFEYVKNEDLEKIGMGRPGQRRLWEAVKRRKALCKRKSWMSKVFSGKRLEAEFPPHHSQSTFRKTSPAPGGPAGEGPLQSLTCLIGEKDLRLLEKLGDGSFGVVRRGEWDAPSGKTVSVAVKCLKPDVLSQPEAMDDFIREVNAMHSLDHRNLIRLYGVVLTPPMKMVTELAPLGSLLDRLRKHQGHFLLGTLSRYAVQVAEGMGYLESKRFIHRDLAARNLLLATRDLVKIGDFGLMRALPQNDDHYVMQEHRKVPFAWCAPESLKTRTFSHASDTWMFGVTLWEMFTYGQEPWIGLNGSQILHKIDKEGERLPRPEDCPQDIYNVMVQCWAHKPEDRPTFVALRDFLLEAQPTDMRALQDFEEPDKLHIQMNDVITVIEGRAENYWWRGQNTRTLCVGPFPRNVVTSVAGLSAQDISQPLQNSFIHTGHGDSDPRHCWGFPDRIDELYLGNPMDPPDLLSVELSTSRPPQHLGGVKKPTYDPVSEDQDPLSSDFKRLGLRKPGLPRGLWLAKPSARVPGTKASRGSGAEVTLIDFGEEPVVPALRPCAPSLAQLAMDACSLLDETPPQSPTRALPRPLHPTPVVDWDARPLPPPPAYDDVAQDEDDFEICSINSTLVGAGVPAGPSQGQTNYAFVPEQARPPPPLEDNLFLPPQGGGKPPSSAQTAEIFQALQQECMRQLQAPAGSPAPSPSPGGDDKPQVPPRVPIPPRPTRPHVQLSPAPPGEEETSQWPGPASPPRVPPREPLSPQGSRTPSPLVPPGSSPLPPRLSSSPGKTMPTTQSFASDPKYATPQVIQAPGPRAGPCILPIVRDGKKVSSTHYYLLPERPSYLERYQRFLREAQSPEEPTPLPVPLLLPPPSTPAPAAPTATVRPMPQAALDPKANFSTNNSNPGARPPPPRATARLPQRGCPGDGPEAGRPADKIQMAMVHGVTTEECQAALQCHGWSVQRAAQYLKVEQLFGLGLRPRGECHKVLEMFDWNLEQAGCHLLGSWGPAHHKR
UniProt P30530, sequence (whole entry, looked up): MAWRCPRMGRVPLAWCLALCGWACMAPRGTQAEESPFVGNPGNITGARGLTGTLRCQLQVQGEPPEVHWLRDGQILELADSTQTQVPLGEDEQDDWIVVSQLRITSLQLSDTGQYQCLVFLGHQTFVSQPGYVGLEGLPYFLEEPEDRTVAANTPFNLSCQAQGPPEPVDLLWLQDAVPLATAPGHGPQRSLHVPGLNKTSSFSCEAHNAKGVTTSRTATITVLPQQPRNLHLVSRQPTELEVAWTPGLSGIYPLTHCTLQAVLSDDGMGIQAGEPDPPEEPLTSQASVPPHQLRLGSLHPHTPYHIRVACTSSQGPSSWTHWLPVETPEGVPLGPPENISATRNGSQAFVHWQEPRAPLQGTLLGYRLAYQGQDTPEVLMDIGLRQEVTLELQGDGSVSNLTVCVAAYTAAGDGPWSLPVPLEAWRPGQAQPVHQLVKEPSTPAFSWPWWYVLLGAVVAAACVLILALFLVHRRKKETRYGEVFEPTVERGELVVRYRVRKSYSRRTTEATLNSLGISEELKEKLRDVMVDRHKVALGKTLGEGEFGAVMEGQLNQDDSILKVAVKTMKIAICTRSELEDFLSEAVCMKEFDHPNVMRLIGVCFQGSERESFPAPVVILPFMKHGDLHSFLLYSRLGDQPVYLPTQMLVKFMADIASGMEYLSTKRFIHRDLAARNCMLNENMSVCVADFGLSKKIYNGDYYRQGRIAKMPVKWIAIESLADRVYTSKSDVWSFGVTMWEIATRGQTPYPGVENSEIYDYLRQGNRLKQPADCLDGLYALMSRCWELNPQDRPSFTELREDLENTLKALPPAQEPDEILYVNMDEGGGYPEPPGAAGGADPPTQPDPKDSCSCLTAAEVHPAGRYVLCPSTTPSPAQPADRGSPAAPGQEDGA

Study 1
Organism: Sarcocystis neurona
Observed: parasite growth
Concentration: 10 µM
`NCc1ccc(S(N)(=O)=O)cc1` gave an inhibition of -35.6%.
For `CC1(C)S[C@@H]2[C@H](NC(=O)[C@H](N)c3ccc(O)cc3)C(=O)N2[C@H]1C(=O)O`, the inhibition was -21.1%.
`CCOC(=O)C1=C(C)NC(C)=C(C(=O)OC)C1c1cccc(Cl)c1Cl` (stereo not drawn) has an inhibition of -22.8%.
With `CC1(C)S[C@@H]2[C@H](NC(=O)Cc3ccccc3)C(=O)N2[C@H]1C(=O)[O-].[K+]` the inhibition was -30.9%.
The inhibition of `CC(=O)O[C@]1(C(C)=O)CC[C@H]2[C@@H]3C=C(C)C4=CC(=O)CC[C@]4(C)[C@H]3CC[C@@]21C` is reported as 6.2%.
With `CCCc1nc(C(C)(C)O)c(C(=O)OCc2oc(=O)oc2C)n1Cc1ccc(-c2ccccc2-c2nnn[nH]2)cc1` the inhibition was 3.7%.
`CC#C[C@]1(O)CC[C@H]2[C@@H]3CCC4=CC(=O)CCC4=C3[C@@H](c3ccc(N(C)C)cc3)C[C@@]21C` gave an inhibition of 8.4%.
With `Cc1ccnc2c1NC(=O)c1cccnc1N2C1CC1` the inhibition was -23.5%.
With `CCOC(=O)c1ncn2c1CN(C)C(=O)c1cc(F)ccc1-2` the inhibition was -20.1%.
With `COCCOC(=O)C1=C(C)NC(C)=C(C(=O)OC(C)C)C1c1cccc([N+](=O)[O-])c1` (stereo not drawn) the inhibition was -22.7%.

Study 2
SMILES: Cc1c[nH]c2nccc(Oc3c(F)cc(Nc4cc(Cl)nc(N)n4)cc3F)c12
Observed: cell-free assay
Technique: competition with immobilised ligand
Concentration: 0.1 µM
For Insulin receptor (INSR, Homo sapiens, UniProt P06213): remaining binding read 80%.
The remaining binding was 97% (DAPK3 (Homo sapiens, UniProt O43293)).
It gave 95% for remaining binding (Myosin-IIIa (MYO3A, Homo sapiens, UniProt Q8NEV4)).
For ACVR2A (Homo sapiens, UniProt P27037): remaining binding read 94%.
It gave 93% for remaining binding (AXL (Homo sapiens, UniProt P30530)).
For STK39 (Homo sapiens, UniProt Q9UEW8): remaining binding read 94%.
For WNK1 (Homo sapiens, UniProt Q9H4A3): remaining binding read 90%.
For EPHA8 (Homo sapiens, UniProt P29322): remaining binding read 87%.
PKMYT1 (Homo sapiens, UniProt Q99640) — remaining binding: 98%.
The remaining binding was 94% (PNCK (Homo sapiens, UniProt Q6P2M8)).
It gave 92% for remaining binding (EPHA5 (Homo sapiens, UniProt P54756)).
The remaining binding was 72% (KIT (Homo sapiens, UniProt P10721, L576P)).
The remaining binding was 76% (FLT3 (Homo sapiens, UniProt P36888)).
The remaining binding was 100% (SIK3 (Homo sapiens, UniProt Q9Y2K2)).
For NEK3 (Homo sapiens, UniProt P51956): remaining binding read 75%.
The remaining binding was 92% (ULK1 (Homo sapiens, UniProt O75385)).
For BUB1 (Homo sapiens, UniProt O43683): remaining binding read 75%.
TNK2 (Homo sapiens, UniProt Q07912) — remaining binding: 95%.
It gave 72% for remaining binding (Aurora kinase C (AURKC, Homo sapiens, UniProt Q9UQB9)).
It gave 92% for remaining binding (MAP3K14 (Homo sapiens, UniProt Q99558)).
EPHB2 (Homo sapiens, UniProt P29323) — remaining binding: 99%.
It gave 80% for remaining binding (CDK11B (Homo sapiens, UniProt P21127)).

Study 3
Species: human
Matrix: microsomes or S9
Concentration: 2 µM
Time: 0.5 h
The remaining compound of `COC(=O)c1c(SC)nn2c(=S)[nH]cnc12` is reported as 73.5%.
`COc1c(NC(=O)c2ccc[nH]2)cc(Cl)cc1C(=O)N(C)C` gave a remaining compound of 107%.
For `Cc1nc2ccccc2n1Cc1cc(NCc2ccccc2OC(C)C)nc(N)n1`, the remaining compound was 1.6%.
For `O=C(Nc1ccccc1)c1cn2c(n1)C(c1ccccc1)N(C(=O)c1ccccc1)CC2` (stereo not drawn), the remaining compound was over 100%.
`O=c1c2c3nc4ccccc4nc3n(C3CCCC3)c2ncn1Cc1ccco1` has a remaining compound of 68%.
For `COc1ccc(C)cc1/N=c1/[nH]cnc2c1oc1ccccc12`, the remaining compound was 3.73%.
The remaining compound of `CNc1nc(NC(C)(C)C)nc(NC(C)(C)C)n1` is reported as 71.5%.
`CCCn1c(N)c(N(CCOC)C(C)=O)c(=O)n(CC(=O)Nc2cc(Cl)cc(Cl)c2)c1=O` has a remaining compound of 53.7%.
For `COC(=O)c1c(NC(=O)N2CCN(C(=O)C(C)C)CC2)sc2c1CC(C)(C)OC2`, the remaining compound was 88%.
The remaining compound of `Cc1nc(-c2cc(C(=O)OCc3cc(F)cc4c3OCOC4)n(C)c2)cs1` is reported as 10.1%.

Study 4
Compound: CN(C)S(=O)(=O)c1ccc2c(c1)/C(=C/c1cc3c([nH]1)CCCC3)C(=O)N2
Observed: enzyme activity
Mode: inhibitor
Concentration: 0.5 µM
Baseline: control
The remaining activity was 82.8% (EPHB1 (Homo sapiens, UniProt P54762)).
It gave 85.8% for remaining activity (EPHB4 (Homo sapiens, UniProt P54760)).
Cyclin-dependent kinase 4, with cyclin D3 (CDK4, Homo sapiens, UniProt P11802) — remaining activity: 99.1%.
MAPKAPK3 (Homo sapiens, UniProt Q16644) — remaining activity: 100%.
For TSSK2 (Homo sapiens, UniProt Q96PF2): remaining activity read 91.8%.
It gave 57.3% for remaining activity (ABL1 (Homo sapiens, UniProt P00519)).
It gave 106% for remaining activity (RPS6KA5 (Homo sapiens, UniProt O75582)).
It gave 98.8% for remaining activity (HIPK4 (Homo sapiens, UniProt Q8NE63)).
For SRMS (Homo sapiens, UniProt Q9H3Y6): remaining activity read 104%.
Cyclin-dependent kinase 6, with cyclin D3 (CDK6, Homo sapiens, UniProt Q00534) — remaining activity: 84.2%.
The remaining activity was 104% (STK16 (Homo sapiens, UniProt O75716)).
For Cyclin-dependent kinase 1, with cyclin B (CDK1, Homo sapiens, UniProt P06493): remaining activity read 75.4%.

Excerpt of the above (study 4):
It gave 57.3% for remaining activity (ABL1 (Homo sapiens, UniProt P00519)).
It gave 106% for remaining activity (RPS6KA5 (Homo sapiens, UniProt O75582)).
It gave 98.8% for remaining activity (HIPK4 (Homo sapiens, UniProt Q8NE63)).
For SRMS (Homo sapiens, UniProt Q9H3Y6): remaining activity read 104%.
Cyclin-dependent kinase 6, with cyclin D3 (CDK6, Homo sapiens, UniProt Q00534) — remaining activity: 84.2%.
